Measured values collected from several papers.
Every numbered part comes from another study and shows a few of its results, in no order. Substitutions count along the parent as printed.

Set 1
Target: ABI1, truncated, D143A, DHFR fusion (Arabidopsis thaliana)
Method: DHFR PCA, deep sequencing
Sample: yeast
Notes: methotrexate growth selection, single substitutions
With: (+)-ABA 0.11 µM
Reference: wild-type fitted maximum
Direction: higher = stronger binding
Starting sequence: PYL1, truncated, DHFR fusion (Arabidopsis thaliana); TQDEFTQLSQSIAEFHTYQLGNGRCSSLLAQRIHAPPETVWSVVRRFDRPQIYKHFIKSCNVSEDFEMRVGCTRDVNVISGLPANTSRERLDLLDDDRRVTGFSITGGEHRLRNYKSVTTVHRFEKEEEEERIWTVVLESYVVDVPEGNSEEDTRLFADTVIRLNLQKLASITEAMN; partner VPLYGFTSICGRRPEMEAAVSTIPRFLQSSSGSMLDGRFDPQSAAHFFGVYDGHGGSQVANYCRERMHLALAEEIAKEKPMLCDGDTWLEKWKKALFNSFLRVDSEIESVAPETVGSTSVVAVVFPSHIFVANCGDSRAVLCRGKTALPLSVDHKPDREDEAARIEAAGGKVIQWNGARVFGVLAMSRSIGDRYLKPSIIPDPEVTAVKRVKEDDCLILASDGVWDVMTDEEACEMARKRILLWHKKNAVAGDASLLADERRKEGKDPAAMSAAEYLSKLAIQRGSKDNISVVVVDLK
Change | relative binding score [%]
G71E | -10.9
L8Q | 10.4
S63N | 28.8
I133F | 10.3
G108T | -2.09
N22I | 29.1
Y53S | -1.56
G107H | 13.2
C25S | -1.51
V78F | 100

Set 2
Target: Histone acetyltransferase KAT6A, winged helix 1, GST fusion (KAT6A, Homo sapiens, UniProt Q92794, residues 1-85)
Method: protein binding microarray
Molecule type: double-stranded DNA, one strand shown
Sample: in vitro
Concentration: not given
Notes: 8-mer, flanks averaged, mean of 2 arrays, mostly near background
Reference: not given
Direction: higher = stronger binding
Target sequence (chain): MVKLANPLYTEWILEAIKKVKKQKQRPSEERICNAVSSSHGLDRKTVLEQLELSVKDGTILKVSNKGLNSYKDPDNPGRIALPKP
Oligonucleotide | E-score
AGTATAGG | -0.0986
CGGAAAAC | 0.142
ACTAGCTG | -0.133
ATAGCGCG | 0.385
AGTGGAAC | -0.0951
GACCTGCC | -0.0518
GACTGCGC | 0.259
ATAAAGAG | -0.113
GTGAATGA | -0.165
ATGCGCCA | 0.127
GTCGCCGA | 0.316
CGTAAACG | 0.271
CGTGGCGC | 0.339
GCAACGTA | -0.0239
CTTAACCC | -0.0442
TAACCATA | -0.00947
ACGTCAGT | -0.15
ATAGTTTA | -0.0671
AGGGTTTG | -0.119
CAAAGCGG | 0.249
ATGAAGAC | -0.0979
CTTAACTA | -0.103
ACATGTAT | -0.0465
CCCCGAAA | -0.0835

Set 3
Target: CCND3, cyclin fold, Cln2 fusion (human)
Method: yeast growth competition, sequencing
Sample: yeast
Notes: weak parent motif
Reference: not given
Direction: higher = stronger binding
Starting sequence: SCAPER docking peptide (human); SNARRSLNFGGST
Change | normalised enrichment score
T13Y | 0.125
T13Q | 0.154
G11Y | 0.141
S6R | 0.202
N8H | 0.154
S12Q | 0.115
N8R | 0.0945
F9V | 0.0374
S12F | 0.135
N2I | 0.158
T13G | 0.129
L7V | 0.0865
G10K | 0.0845
R4C | 0.15

Set 4
Target: Ras GTPase-activating protein-binding protein 1, C-terminal RGG region (G3BP1, Homo sapiens, UniProt Q13283)
Chain of UniProt Q13283 (whole entry, looked up): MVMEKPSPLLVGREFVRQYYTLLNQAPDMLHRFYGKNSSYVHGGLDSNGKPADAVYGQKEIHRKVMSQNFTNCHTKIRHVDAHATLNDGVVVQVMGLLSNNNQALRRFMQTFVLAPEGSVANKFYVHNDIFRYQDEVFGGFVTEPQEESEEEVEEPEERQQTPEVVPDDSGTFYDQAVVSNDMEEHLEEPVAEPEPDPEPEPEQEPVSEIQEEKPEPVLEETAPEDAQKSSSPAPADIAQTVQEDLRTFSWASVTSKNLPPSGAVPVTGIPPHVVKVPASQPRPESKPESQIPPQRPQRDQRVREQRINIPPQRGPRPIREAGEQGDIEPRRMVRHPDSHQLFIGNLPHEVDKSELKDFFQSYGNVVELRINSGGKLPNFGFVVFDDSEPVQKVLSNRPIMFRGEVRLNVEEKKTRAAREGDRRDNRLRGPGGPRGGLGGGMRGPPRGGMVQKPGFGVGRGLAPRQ
Method: RNA Bind-n-Seq
Molecule type: RNA
Sample: in vitro
Concentration: 1 µM
Notes: whole 134-nt RNA, ends assumed
With: 150 mM KCl
Reference: input library
Direction: higher = stronger binding
Shared flanks, not repeated: GGGAGUUCUACAGUCCGACGAUC … UGGAAUUCUCGGGUGUCAAGG
Oligonucleotide | log2 enrichment
AAGUCCUGUGCUACACAUCGUAUGUACCGAAUCGGGGAAAGGGGAAAGGGGUGGGGAAAGUAUUAUGUUACGCCGUUCGGAUCUGCACUU | 2.98
UAACUUUAGAGGAGGAUCUGAUGGAUAUGGCAGUGGACGUGGAUUUGGGGGUGGCUAUAAUGGGUAUGGAGGAGGACCUGGAGGUGGCAA | 0.0531
UGGCCCUGGUGGCAUGCGGGGAGGAAGAGGUGGCCUCAUGGAUCGUGGUGGUCCCGGUGGAAUGUUCAGAGGUGGCCGUGGUGGCGACAG | 3.37
CACAGACAACACGCACCCACACAGACACAGAGGGAAGGGGUUGGGAUGGAAACAGGGUGCACAGCAGGGCGGGGUAGGACCCCAGCCCCU | -0.347
ACCAUGCAGGUGGGCAUCUUUGGGACGUGGGGCAAGGGGGGGAUAGGGAGGGGGGUAACACUUUGGGAACAGGUGGUCCCAGGUCGUUUC | -1.09
UACAGGAGCUUCCUGGGACUGACCUGCCUGAUGCAAAUUUCUACUCGGACGGAAGACUUCAUCAUUGACACCCUCGAGCUUCGAAGUGAC | 0.285
UCCUGUGCUACACAUCGUAUGUACCGAAUCAAACCCAAAUUUUUUUAAACCCCCCCAAAAAAGUAUUAUGUUACGCCGUUCGGAUCUGCA | -0.485
GUCCUGUGCUACACAUCGUAUGUACCGAAUCGGUUUUUGGGGUUUUUGGGGUUUUUGGGAAAGUAUUAUGUUACGCCGUUCGGAUCUGCA | -0.484
AGUCCUGUGCUACACAUCGUAUGUACCGAAUCGGCCCCCGGGGCCCCCGGCCCCCGGAAAGUAUUAUGUUACGCCGUUCGGAUCUGCACU | -1.69
UCGGACGCCGCCAACCUGCACGAGUUCCACGCGGACCUGCGCUCAUGCUUUGCACCCCAGCACAUGGCCAUGCUGUGUAGCCCCAUCCUC | 0.818

Set 5
Target: RNA binding protein fox-1 homolog 2, RRM domain, GST-SBP tag (RBFOX2, Homo sapiens, UniProt O43251-10, residues 100-194)
Method: RNA Bind-n-Seq
Molecule type: RNA
Sample: in vitro
Concentration: 365 nM
Notes: natural RNA segment, single round, ends assumed
Reference: no-protein control
Direction: higher = stronger binding
Shared flanks, not repeated: GGGAGUUCUACAGUCCGACGAUC … UGGAAUUCUCGGGUGCCAA
Residues (chain): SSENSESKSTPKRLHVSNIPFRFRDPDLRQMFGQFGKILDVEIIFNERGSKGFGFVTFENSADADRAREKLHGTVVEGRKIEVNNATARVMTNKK
Oligonucleotide | RBNS enrichment (R)
AUAUAUAUGCUAUAUAUGGACACACUAUUUUCUUAUGUCAUCUAUGGCAUUUUUUUAUCUGUAUACUUUUUGAUGUGGUUGAUUGUUUUUAACAUGCUAAAAGUAAUCCG | 0.609
CAGAUCCUAGCUCCGCCUCCUGGGCAGUCCUUCUGAAAAGUCCCAUGUAAGCAGCAAAGGGGCGUAAGUAGCCACGAGGCACCUCGCAUGCCUUCUUCAGUGGCUGAGGG | 1.28
AUCUUUACAGUUCCUCGGGAAAAUGUGAAUGUGCUGCGUUUUGUUUUCUUUACUGUAUGAAAACAGGAAAAUAAAAGAGAAAUUUAGAAAAUACAGCUCAUUACAAUAAA | 0.355
UUCUUUAAGUUGACUUUUUUUACUUCAUUAUUUUUAGGAAUAAAUGUAAGAUUUUACAAAUCUUUUAUUUCCCCACAAGAUCUGAAGUUUGGUAUUUUUGCAUUAUGACA | 2.41
GGGGAGACGCUCUAUUUUUUCACAGUUAAAUGACAGUUGUAGAUUGAUACGCAGUUGUGCAUGGGAAGGGGAAACGCACAGCUUUAUUUACUGUAAAGUGGAAUUUCAGG | 1.77
GGGGAGGUGCUGUUGGCGUGGAGGCUGCAGGAUGGAAGGGACACGUCCAGGUGACUGACUGGUUGCUCCUCCCCCUUGGCAUGUUUGCAGAUCCUCUCCUCAGUCCGUGA | 0.94
GAAGUUCUGCCUCUGAUGUAUUUUGUGAGUUUGUUUCUUUGAAUUUUCAUUUUACAGUUACUUUUCCUUGCAUACAAACAAGCAUAUAAAAUGGCAACAAACUGCACAUG | 0.451
UCUCUUGUUGCCCAGGCUGGAGGGCAAUGGCGUGAUCUUGGCUCACUGCAACUUCCACCUCCUGGGUUCAAGUGAUUCUCCUGCCUCACUCCCAAGUAGCUGGGAUUACA | 0.48
AAGAAGAAAGACUCCCUUCACUUUGCCCUUAACACUUGCCUCUGUUAUCUAAGCUUCGUUAAUAGAUUUCUUAAUAUCAUCCAAUGUUUGGUGUUAUCUGCAUUGUUUUU | 0.323
CGCUGCUUACCGAUCCCGGGGCUUUUCCAGCCCACGGGCGCCUGACGCAGGCUGGGGCAAGUGGUGCGUGGGGCCUGGUCCCCAAGGGGCGGCUGAGAGGCCGCCACUGA | 0.227
AGAAGGGGAGGUAGGGUCGACUGUGAGUGCAUGCCAUCUUUGUCAGACUGGUGACAGAGUUCCUGUCUAACUGUCCUUUAUUUGAAAUAAACUGAGCUGAGUUGGUCUCU | 7.68
AUCCGGGAGAUGCUGAUGGCACGAAGGGCCCAGUAGGGAGCCUCUCUGGGAAGCUCUUCCUCCUGCCCCUCCCAUUCCUGGUGGGGGCAGAGGAGUGUCUGCAGGGAAAC | 0.44

Set 6
Target: Sal-like protein 4, full length isoform B (SALL4, Homo sapiens, UniProt Q9UJQ4-2, residues 1-616)
Method: universal PBM
Molecule type: double-stranded DNA, one strand shown
Sample: in vitro
Concentration: not given
Notes: 8-mer, flanks averaged, mean of replicates
Direction: higher = stronger binding
Oligonucleotide | E-score
CAACCACG | -0.118
AAGGCACG | -0.118
GCACGCCA | -0.294
CCTGTGCC | -0.189
CCAGGTGA | -0.206
AAACAAGA | 0.0945
AGTGTCTG | 0.00234
AAACCTTT | 0.112
ATGTTAGC | 0.0959
TACCGGCA | -0.123
CTCAGAAG | -0.19
GTCGGCAC | -0.126
ATACCTCA | 0.122
ACAGCCGA | -0.0806
CTCCCCCA | -0.091
ATTTAGCG | 0.117
AATATCAC | 0.321
ACGAACGG | 0.00519
CGACGGGA | -0.175
CCAGTGAC | -0.217
CTCCCGTA | -0.0818
AATGTTAG | 0.0803
ACGGTGGC | -0.228
ACCTAGCC | -0.149
AACTTTAT | 0.296

Set 7
Target: Interferon regulatory factor 5, full length, phosphomimetic (IRF5, Homo sapiens, UniProt Q13568-2, residues 1-514, K96S/S451D/S453D/S456D/S462D)
Method: protein-binding microarray
Molecule type: double-stranded DNA, one strand shown
Sample: in vitro
Concentration: 250 nM
Notes: 60-bp whole probe
With: salmon DNA 0.4 mg/ml
Reference: random background probes
Direction: higher = stronger binding
Shared flanks, not repeated: GCCTAGCAC … GTCTTGATTCGCTTGACGCTGCTG
Oligonucleotide | log fluorescence
TTAGGTTTCGATTTCGGTTAGTGCTAG | 10.6 z-score
GACGGTTTCGACTTTCGGAACGTGCTA | 8.61 z-score
TTATGTATCGACACTGGGTTAGTGCTA | 2.58 z-score
GACGCTATCAGTTTCGAGACGTGCTAG | 6.51 z-score
GACGATTTCAGTTCGGAGACGTGCTAG | 0.891 z-score
TTAGAACTGAGTCTCGAATAGTGCTAG | 0.0523 z-score
GACGGACTGCTTATCCTGAAGTGCTAG | -0.565 z-score
TCATTTTCACTTTTCCTACTGTGCTAG | 6.37 z-score
GACGAATTGGGGTATCGAGACGTGCTA | 0.372 z-score
TTAGGTTACCTACTGCTTTAGTGCTAG | -0.15 z-score
TTCCCTCTGCTCCTCTTTTTGTGCTAG | 0.537 z-score
TTAGGTTCCCTTTTGCTTTAGTGCTAG | 0.728 z-score
GACGATATCAGTCTCGTGACGTGCTAG | 0.982 z-score
GACGATTCCAGTTTCGAGACGTGCTAG | 5.56 z-score
TTAAATTTCAGACTGGATTAGTGCTAG | 0.626 z-score
TCATCTCTCCATGTGTTACTGTGCTAG | 0.475 z-score

Repeated from above (set 3):
Change | normalised enrichment score
T13Q | 0.154
G11Y | 0.141
S6R | 0.202
N8H | 0.154
S12Q | 0.115
N8R | 0.0945
F9V | 0.0374
S12F | 0.135
N2I | 0.158
T13G | 0.129
L7V | 0.0865
